Measurements from different studies.
Lines come from different studies, so protocols differ. Numbers after ± are the reported error.
UniProt P48147, sequence (whole entry, looked up): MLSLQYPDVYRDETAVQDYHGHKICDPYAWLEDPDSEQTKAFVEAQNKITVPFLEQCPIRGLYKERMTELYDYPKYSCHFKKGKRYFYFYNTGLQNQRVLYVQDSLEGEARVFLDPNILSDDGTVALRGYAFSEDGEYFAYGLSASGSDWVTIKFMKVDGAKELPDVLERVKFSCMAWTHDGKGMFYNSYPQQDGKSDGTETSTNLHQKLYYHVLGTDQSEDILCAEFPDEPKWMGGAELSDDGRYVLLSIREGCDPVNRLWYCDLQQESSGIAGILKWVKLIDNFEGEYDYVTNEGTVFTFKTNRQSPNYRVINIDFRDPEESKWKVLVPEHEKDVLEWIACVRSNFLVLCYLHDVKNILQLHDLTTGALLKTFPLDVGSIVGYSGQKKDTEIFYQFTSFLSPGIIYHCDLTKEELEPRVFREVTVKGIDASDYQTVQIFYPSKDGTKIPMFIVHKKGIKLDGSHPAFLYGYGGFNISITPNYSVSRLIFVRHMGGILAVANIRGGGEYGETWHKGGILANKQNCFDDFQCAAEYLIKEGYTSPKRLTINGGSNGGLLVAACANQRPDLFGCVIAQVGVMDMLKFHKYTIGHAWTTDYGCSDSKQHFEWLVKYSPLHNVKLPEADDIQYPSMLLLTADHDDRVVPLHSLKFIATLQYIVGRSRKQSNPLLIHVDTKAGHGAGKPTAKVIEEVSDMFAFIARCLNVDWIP
UniProt Q96LA9, sequence (whole entry, looked up): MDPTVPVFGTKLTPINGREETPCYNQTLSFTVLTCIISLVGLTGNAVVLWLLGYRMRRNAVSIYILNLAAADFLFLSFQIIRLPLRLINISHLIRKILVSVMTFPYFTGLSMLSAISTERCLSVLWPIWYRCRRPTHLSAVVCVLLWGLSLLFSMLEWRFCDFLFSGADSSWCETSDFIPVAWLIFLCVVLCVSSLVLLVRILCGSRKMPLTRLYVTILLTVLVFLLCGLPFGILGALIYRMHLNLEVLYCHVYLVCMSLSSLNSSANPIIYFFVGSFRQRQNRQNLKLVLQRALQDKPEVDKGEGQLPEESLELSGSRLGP
UniProt P49589, sequence (whole entry, looked up): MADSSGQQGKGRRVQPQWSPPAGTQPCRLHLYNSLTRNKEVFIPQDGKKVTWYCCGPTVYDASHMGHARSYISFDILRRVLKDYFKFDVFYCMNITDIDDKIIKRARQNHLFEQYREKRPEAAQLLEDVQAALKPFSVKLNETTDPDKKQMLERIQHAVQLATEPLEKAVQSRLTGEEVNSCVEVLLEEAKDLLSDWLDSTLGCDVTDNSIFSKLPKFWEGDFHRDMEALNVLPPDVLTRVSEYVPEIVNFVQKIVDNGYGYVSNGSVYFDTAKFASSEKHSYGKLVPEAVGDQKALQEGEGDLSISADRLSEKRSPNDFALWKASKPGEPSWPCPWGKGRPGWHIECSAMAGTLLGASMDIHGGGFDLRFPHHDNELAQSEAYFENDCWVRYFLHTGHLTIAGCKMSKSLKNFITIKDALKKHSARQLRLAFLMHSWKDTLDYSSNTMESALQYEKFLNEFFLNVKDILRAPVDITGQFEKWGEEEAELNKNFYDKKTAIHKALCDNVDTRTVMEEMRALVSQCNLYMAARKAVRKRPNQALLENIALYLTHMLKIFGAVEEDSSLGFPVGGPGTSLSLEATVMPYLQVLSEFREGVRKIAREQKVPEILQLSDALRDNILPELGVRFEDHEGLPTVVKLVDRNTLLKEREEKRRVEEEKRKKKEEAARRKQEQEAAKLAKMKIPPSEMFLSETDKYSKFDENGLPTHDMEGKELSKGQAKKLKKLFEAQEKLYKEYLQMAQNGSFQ
UniProt P53779, sequence (whole entry, looked up): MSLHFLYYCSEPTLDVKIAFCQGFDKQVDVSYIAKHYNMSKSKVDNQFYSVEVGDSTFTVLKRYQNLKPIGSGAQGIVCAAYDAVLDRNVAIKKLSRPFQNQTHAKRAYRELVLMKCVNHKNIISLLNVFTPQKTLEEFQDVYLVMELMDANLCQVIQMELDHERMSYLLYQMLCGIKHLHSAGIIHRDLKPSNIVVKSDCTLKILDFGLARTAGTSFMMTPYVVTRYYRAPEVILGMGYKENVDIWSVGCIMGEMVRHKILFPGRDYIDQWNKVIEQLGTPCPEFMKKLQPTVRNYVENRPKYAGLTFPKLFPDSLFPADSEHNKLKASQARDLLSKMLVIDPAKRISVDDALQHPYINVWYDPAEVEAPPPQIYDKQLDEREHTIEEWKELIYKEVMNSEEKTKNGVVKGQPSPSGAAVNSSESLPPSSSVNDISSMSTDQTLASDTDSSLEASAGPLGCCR

Under “log2 fold change”, `Oc1ccc2c3c1O[C@H]1[C@@H](O)CC[C@@]4(O)[C@@H](C2)N(CC2CCC2)CC[C@]314` is recorded as -0.308 (Mas-related G-protein coupled receptor member X4 (Homo sapiens, UniProt Q96LA9); β-arrestin recruitment, TANGO luminescence, refers to: MRGPRX4; concentration not given; reference: basal luminescence).
`C[C@H]1CN(c2n[nH]c3nc(N[C@H]4CC[C@H](NS(=O)(=O)CCC(F)(F)F)CC4)ncc23)CCO1` gave a remaining binding of 1.44 (Cysteine--tRNA ligase, cytoplasmic (Homo sapiens, UniProt P49589); Kinobeads competition, refers to: CARS; 0.8 µM, unit not given; reference: vehicle).
With `Cc1ncc(OC[C@@]2(c3cccc(F)c3)C[C@H]2C(=O)Nc2ccc(F)cn2)c(C)n1` the mass recovery was 88 ± 10% (MDCK; 1 µM, 90 min, pH 7.4 apical, 7.4 basolateral, basolateral to apical).
`COCCOCCOCCNC(=O)CSc1nc(-c2ccccc2)cc(C(F)(F)F)c1C#N` gave a viability of 58 ± 6% (MDA-MB-231; MTT; 100 µM, 72 h).
For `C[C@@H]1O[C@@H](OC[C@H]2O[C@@H](Oc3c(-c4ccc(O)c(O)c4)oc4cc(O)cc(O)c4c3=O)[C@H](O)[C@@H](O)[C@@H]2O)[C@H](O)[C@H](O)[C@H]1O`, the viability was 95.7% (Caco-2; CCK-8; 1.25 µM, 24 h).
The intracellular concentration of `O=C(Nc1cccnn1)N1CCC(=Cc2cccc(Oc3ccc(C(F)(F)F)cn3)c2)CC1` is reported as 11.7 ± 0.6 nM (COS cells expressing human FAAH; cell lysate; 100 nM, 1 h).
With `Nc1c(C(=O)Nc2nccs2)sc2nc(-c3ccccc3)cc(C(F)(F)F)c12` the viability was 28 ± 3% (MDA-MB-231; MTT; 100 µM, 72 h).
For `Cc1c[nH]c2nccc(Oc3c(F)cc(Nc4cc(Cl)nc(N)n4)cc3F)c12`, the CC50 was greater than 20 µM (human cells).
With `Cc1cc(-c2ccccc2)nc2sc(C(=O)Nc3nccs3)c(N)c12` the viability was 18 ± 3% (MDA-MB-231; MTT; 100 µM, 72 h).
`Oc1ccc(C2(c3ccc(O)cc3)c3ccccc3-c3ccccc32)cc1` has a necrotic cells of 59.5 ± 26.2% (HepG2 spheroids; annexin V-FITC/PI flow cytometry; 1 µM, 96 h).
For `CC[C@H](C)[C@H](NC(=O)[C@H](Cc1ccccc1)NC(=O)[C@H](CCC(=O)O)NC(=O)[C@H](CCCNC(=N)N)NC(=O)[C@H](C)NC(=O)[C@H](C)NC(=O)[C@H](CCC(N)=O)NC(=O)[C@H](CCC(=O)O)NC(=O)[C@H](CCC(=O)O)NC(=O)[C@H](CC(C)C)NC(=O)[C@H](Cc1ccc(O)cc1)NC(=O)[C@H](CO)NC(=O)[C@H](CO)NC(=O)[C@@H](NC(=O)[C@H](CC(=O)O)NC(=O)[C@H](CO)NC(=O)[C@@H](NC(=O)[C@H](Cc1ccccc1)NC(=O)[C@@H](NC(=O)CNC(=O)[C@H](CCC(=O)O)NC(=O)[C@H](C)NC(=O)CCc1c[nH]cn1)[C@@H](C)O)[C@@H](C)O)C(C)C)C(=O)N[C@@H](C)C(=O)N[C@@H](Cc1c[nH]c2ccccc12)C(=O)N[C@@H](CC(C)C)C(=O)N[C@H](C(=O)N[C@@H](CCCNC(=N)N)C(=O)NCC(=O)N[C@@H](CCCNC(=N)N)C(=O)N[C@@H](CCCCNC(=O)COCCOCCNC(=O)COCCOCCNC(=O)CC[C@H](NC(=O)CCCCCCCCCCCCCCCCC(=O)O)C(=O)O)C(=O)NCC(=O)NCC(=O)N[C@@H](CO)C(=O)N[C@@H](CCCCNc1c(NCCCCCN(O)C(=O)CCC(=O)NCCCCCN(O)C(=O)CCC(=O)NCCCCCN(O)C(C)=O)c(=O)c1=O)C(=O)O)C(C)C` [zirconium-89 labelled], the tissue uptake was 0.73 %ID/g (rat, lung; sc, 3 nmol/kg, 168 h, ex vivo).
`COCCOCCOCCNC(=O)c1sc2nc(C)cc(C(F)(F)F)c2c1N` gave a viability of 67 ± 9% (MDA-MB-231; MTT; 100 µM, 72 h).
For `CC[C@H](C)[C@H]1C(=O)N[C@@H](CC(C)C)C(=O)N2CCC[C@H]2C(=O)N2CCC[C@@H]2C(=O)NCC(=O)N[C@@H](CC(C)C)C(=O)N[C@@H](CC(C)C)C(=O)N[C@@H](C)C(=O)N[C@@H](CO)C(=O)N[C@H]([C@H](C)O)C(=O)N[C@H](Cc2ccc(O)cc2)C(=O)N1C`, “Papp A to B” read 2.1 nm/s (MDCK-MDR1; HBSS, 0.25% BSA; 2 h).
With `COc1ccc(N2C(=O)N(c3c(C)cccc3Cl)Cc3cnc(Nc4ccc(C5CCN(C)CC5)cc4OC)nc32)nc1` the inhibition was 3% (Mitogen-activated protein kinase 10 (MAPK10, Homo sapiens, UniProt P53779); kinase activity, inhibitor; 0.5 µM, kinase JNK3).
`O=S(=O)(c1ccc(O)cc1)c1ccc(O)cc1`: “late apoptotic cells” 39.1 ± 10.3% (HepG2 spheroids; annexin V-FITC/PI flow cytometry; 0.10 µM, 96 h).
`O=C(Nc1cccnn1)N1CCC(=Cc2cccc(Oc3ccc(C(F)(F)F)cn3)c2)CC1` gave a supernatant concentration of 78 ± 3 nM (COS cells expressing human FAAH; 100 nM, 0 h).
`O=c1ccc2ccccc2o1` — result for “point of departure”: 194 µM (HepaRG 3D spheroids; cellular ATP; 72 h, high-content imaging).
The mitotic cells of `Cc1cc(C(C)(C)c2ccc(O)c(C)c2)ccc1O` is reported as 1.48 fold (HepG2 spheroids; flow cytometry, refers to: phospho-histone H3; 40 µM, 24 h; reference: solvent control).
The IC50 of `COc1cc(Nc2ncc(F)c(Nc3ccc4c(n3)NC(=O)C(C)(C)O4)n2)cc(OC)c1OC` is reported as greater than 10 µM (Prolyl endopeptidase (PREP, Homo sapiens, UniProt P48147); enzyme activity, inhibitor).
For `CC(C)CC(=O)OC[C@H]1O[C@@](C#N)(c2ccc3c(N)ncnn23)[C@H](O)[C@@H]1O`, the efflux ratio was 1.71 (Caco-2; 90 µM, 2 h, together with: verapamil 100 µM).
For `C[C@@H](O)[C@@H](CO)NC(=O)[C@@H](CCCNC(=N)N)NC(=O)[C@@H]1CCCN1C(=O)[C@@H]1CSSC[C@H](NC(=O)[C@H](Cc2ccccc2)NC(=O)CN2CCN(CC(=O)O)CCN(CC(=O)O)CCN(CC(=O)O)CC2)C(=O)N[C@@H](Cc2ccc(O)cc2)C(=O)N[C@@H](Cc2ccccc2)C(=O)N[C@@H](CCC(N)=O)C(=O)N[C@@H](CC(N)=O)C(=O)N1` [gallium-68 labelled], the tissue uptake was 0.45 %ID/g (Wistar rat, liver; intravenous, 8 MBq, 30 min, group mean).
For `COc1cc(CNC(=O)CSc2nc(C)cc(-c3ccccc3)c2C#N)cc(OC)c1OC`, the viability was 78 ± 10% (MDA-MB-231; MTT; 100 µM, 72 h).
`CN(C(=O)n1cnc(-c2ccc[n+]([O-])c2)c1)C1CCCCC1` has a concentration of 0.0917 ± 0.003 µM (COS cells expressing human FAAH; COS cell culture supernatant; 100 nM, 0 h).
`CNC(=O)c1c(N(C)N=O)ncn1C` — result for “revertant colonies per plate”: 117 ± 12 (Escherichia coli; plate incorporation; WP2uvrA pKM101, water; 150 µg/plate, without S9).
`CC[C@H](C)[C@@H]1NC(=O)[C@@H]2CCCN2C(=O)[C@H](CC(C)C)NC(=O)[C@H](CC(C)C)NC(=O)CNC(=O)[C@@H](NC(=O)[C@@H](NC(=O)[C@H](CC(=O)O)NC(=O)CNC(=O)[C@@H](NC(=O)[C@H](C)NC(=O)CNC(=O)[C@H](CCCCN)NC(=O)[C@H](CC(C)C)NC(=O)[C@H](CC(C)C)NC(=O)[C@H](CCCCN)NC(=O)CNC(=O)[C@@H](NC(=O)[C@@H](N)CC(C)C)C(C)C)C(C)C)C(C)C)CSSC[C@@H](C(=O)O)NC1=O` — result for “log2 fold change”: -1.3 (RNA-seq, refers to: Zswim4; mouse, traumatic brain injury model, frontal cortex and hippocampus; dose not given; reference: TBI alone).
For `O=C(Nc1cnccc1Cl)N1CCN(Cc2ccc3c(c2)OC(F)(F)O3)CC1`, the concentration was 0.0901 ± 0.0027 µM (COS cells expressing human FAAH; COS cell culture supernatant; 100 nM, 1 h).
For `CC(c1ccccc1)(c1ccc(O)cc1)c1ccc(O)cc1`, “early apoptotic cells” read 6.43 ± 2.25% (HepG2 spheroids, dissociated; annexin V-FITC/PI flow cytometry; 1 µM, 96 h).
For `Cc1cccc(NC(=O)CSc2nc(-c3ccccc3)cc(C(F)(F)F)c2C#N)n1`, the viability was 29 ± 3% (MDA-MB-231; MTT; 100 µM, 72 h).

For quick reference, copied from above:
`Oc1ccc(C2(c3ccc(O)cc3)c3ccccc3-c3ccccc32)cc1` has a necrotic cells of 59.5 ± 26.2% (HepG2 spheroids; annexin V-FITC/PI flow cytometry; 1 µM, 96 h).
For `CC[C@H](C)[C@H](NC(=O)[C@H](Cc1ccccc1)NC(=O)[C@H](CCC(=O)O)NC(=O)[C@H](CCCNC(=N)N)NC(=O)[C@H](C)NC(=O)[C@H](C)NC(=O)[C@H](CCC(N)=O)NC(=O)[C@H](CCC(=O)O)NC(=O)[C@H](CCC(=O)O)NC(=O)[C@H](CC(C)C)NC(=O)[C@H](Cc1ccc(O)cc1)NC(=O)[C@H](CO)NC(=O)[C@H](CO)NC(=O)[C@@H](NC(=O)[C@H](CC(=O)O)NC(=O)[C@H](CO)NC(=O)[C@@H](NC(=O)[C@H](Cc1ccccc1)NC(=O)[C@@H](NC(=O)CNC(=O)[C@H](CCC(=O)O)NC(=O)[C@H](C)NC(=O)CCc1c[nH]cn1)[C@@H](C)O)[C@@H](C)O)C(C)C)C(=O)N[C@@H](C)C(=O)N[C@@H](Cc1c[nH]c2ccccc12)C(=O)N[C@@H](CC(C)C)C(=O)N[C@H](C(=O)N[C@@H](CCCNC(=N)N)C(=O)NCC(=O)N[C@@H](CCCNC(=N)N)C(=O)N[C@@H](CCCCNC(=O)COCCOCCNC(=O)COCCOCCNC(=O)CC[C@H](NC(=O)CCCCCCCCCCCCCCCCC(=O)O)C(=O)O)C(=O)NCC(=O)NCC(=O)N[C@@H](CO)C(=O)N[C@@H](CCCCNc1c(NCCCCCN(O)C(=O)CCC(=O)NCCCCCN(O)C(=O)CCC(=O)NCCCCCN(O)C(C)=O)c(=O)c1=O)C(=O)O)C(C)C` [zirconium-89 labelled], the tissue uptake was 0.73 %ID/g (rat, lung; sc, 3 nmol/kg, 168 h, ex vivo).
